Measured values collected from several papers.
Each line is one published result; not all experiments were run side by side. Values joined by “and” are separate records of one study, mostly repeats; a detail may differ. ± gives the spread as reported.

For `CC[C@H](C)[C@H](NC(=O)[C@H](CCCCN)NC(=O)CNC(=O)[C@H](CC(C)C)NC(=O)[C@H](Cc1ccccc1)NC(=O)[C@H](CCCCN)NC(=O)[C@H](CO)NC(=O)[C@H](Cc1ccccc1)NC(=O)[C@H](Cc1c[nH]c2ccccc12)NC(=O)[C@H](CCC(N)=O)NC(=O)[C@@H](NC(=O)[C@H](Cc1ccccc1)NC(=O)CCCCCNC(=O)CN1CCN(CC(=O)O)CCN(CC(=O)O)CCN(CC(=O)O)CC1)C(C)C)C(=O)N[C@@H](CCC(=O)O)C(=O)N1CCC[C@H]1C(=O)N[C@@H](CC(=O)O)C(=O)N[C@H](C(=O)N[C@@H](CO)C(=O)N[C@@H](CCC(N)=O)C(=O)N[C@H](C(=O)N[C@@H](CCC(N)=O)C(=O)N[C@@H](CC(=O)O)C(=O)N1CCC[C@H]1C(=O)N[C@@H](CC(N)=O)C(=O)N[C@@H](CC(=O)O)C(=O)N[C@@H](CCC(N)=O)C(=O)N[C@@H](Cc1ccc(O)cc1)C(=O)N[C@@H](CCC(=O)O)C(=O)N1CCC[C@H]1C(=O)N[C@@H](Cc1ccccc1)C(=O)O)C(C)C)C(C)C` [copper-64 labelled], the tissue uptake was 54.2 ± 12.6 %ID/g (C57BL/6 mice, male, tumour-free, kidneys; 4 h).
For `O=C1NC2(CC2)COc2ncc(F)cc2[C@H]2COCCN2c2ccn3ncc1c3n2`, the lymphocyte percentage was 77 ± 6.7% (Sprague-Dawley rat, male, blood; oral, 2.5 mg/kg/day, 4 weeks, end of treatment, subacute toxicity).
`NC1CCN(C(=O)Oc2ccc(C3CCCC4(C3)OOC3(O4)C4CC5CC(C4)CC3C5)cc2)CC1` (racemic) has a half-life of 3.42 h (male mouse, plasma; intravenous, 10 mg/kg).
For `CN1Cc2cc(Cl)ccc2-n2c(nnc2C2CCN(c3cccc([18F])n3)CC2)C1`, “total volume of distribution” read 1.05 ± 0.29 mL/cm3 (PET two-tissue compartment model; rhesus monkey, striatum; intravenous, dose not given, 60 min scan, baseline scan).
The excreted amount of `CCN(CCCCOc1ccc(CCC(=O)N2CCC(Cc3ccccc3)CC2)cc1OC)Cc1ccccc1` is reported as 3590 ± 601 ng (Sprague-Dawley rats, both sexes, urine; oral gavage, 25 mg/kg, 0 to 48 h).
`C=Cc1c(C)c2cc3nc(c(CC(=O)[O-])c4[n-]c(cc5nc(cc1[n-]2)C(C)=C5CC)c(C)c4C(=O)[O-])C(CCC(=O)[O-])C3C.[Cu+2].[Na+].[Na+].[Na+]` (stereo not shown) has a serum albumin of 1 ± 0.19 g/dL (Wistar rat, male; oral, 1000 mg/kg daily, 28 days).
`CC(=O)NCCCC[C@@H]1NC(=O)[C@H](Cc2c[nH]c3c(C)cccc23)NC(=O)[C@H]([C@@H](C)O)NC(=O)[C@H](CC(N)=O)NC(=O)[C@@H](NC(C)=O)C(C)(C)SSC(C)(C)[C@@H](C(=O)N[C@@H](Cc2ccc(OCCN)cc2)C(=O)N[C@@H](Cc2ccc3ccccc3c2)C(=O)NC2(C(=O)N[C@@H](CCC(=O)O)C(=O)N[C@@H](CC(N)=O)C(=O)N[C@@H](Cc3cccnc3)C(=O)N(C)CC(N)=O)CCOCC2)NC1=O` — result for “plasma protein binding”: 46.8 ± 1% (equilibrium dialysis; cynomolgus monkey, plasma; 0.01 µM).
For `C/C(=N\OCCCN1CCCCC1)c1ccc(C(F)(F)F)cc1`, the PR interval was 72 ms and 60 ms (rhesus monkey; dose not given, after dosing).
Under “PCE to total erythrocyte ratio”, `Cc1ccc(OCC(=O)N(Cc2cccs2)c2ccn[nH]2)cc1` is recorded as 0.66 ± 0.06 (micronucleus; CD-1 mouse Crl:CD-1(ICR), male, bone marrow; oral, 2000 mg/kg/day, 3 days).
With `CSCC[C@H](N)C(=O)N[C@@H](C)C(=O)N[C@@H](Cc1c[nH]c2ccccc12)C(=O)N[C@@H](Cc1c[nH]cn1)C(=O)N[C@@H](CC(=O)O)C(=O)N[C@@H](CC(=O)O)C(=O)N[C@@H](CCC(=O)O)C(=O)N[C@@H](CCC(=O)O)C(=O)N[C@@H](Cc1ccccc1)C(=O)N[C@@H](C)C(=O)N[C@@H](CCCNC(=N)N)C(=O)N[C@@H](CCCNC(=N)N)C(=O)N[C@@H](CCCNC(=N)N)C(=O)N[C@@H](CCCNC(=N)N)C(=O)NCCCCCC(=O)NCCCCC(NC(=O)CCCCCNC(=O)[C@H](CCCNC(=N)N)NC(=O)[C@H](CCCNC(=N)N)NC(=O)[C@H](CCCNC(=N)N)NC(=O)[C@H](CCCNC(=N)N)NC(=O)[C@H](C)NC(=O)[C@H](Cc1ccccc1)NC(=O)[C@H](CCC(=O)O)NC(=O)[C@H](CCC(=O)O)NC(=O)[C@H](CC(=O)O)NC(=O)[C@H](CC(=O)O)NC(=O)[C@H](Cc1c[nH]cn1)NC(=O)[C@H](Cc1c[nH]c2ccccc12)NC(=O)[C@H](C)NC(=O)[C@@H](N)CCSC)C(=O)NCCCCC(NC(=O)C(CCCCNC(=O)CCCCCNC(=O)[C@H](CCCNC(=N)N)NC(=O)[C@H](CCCNC(=N)N)NC(=O)[C@H](CCCNC(=N)N)NC(=O)[C@H](CCCNC(=N)N)NC(=O)[C@H](C)NC(=O)[C@H](Cc1ccccc1)NC(=O)[C@H](CCC(=O)O)NC(=O)[C@H](CCC(=O)O)NC(=O)[C@H](CC(=O)O)NC(=O)[C@H](CC(=O)O)NC(=O)[C@H](Cc1c[nH]cn1)NC(=O)[C@H](Cc1c[nH]c2ccccc12)NC(=O)[C@H](C)NC(=O)[C@@H](N)CCSC)NC(=O)CCCCCNC(=O)[C@H](CCCNC(=N)N)NC(=O)[C@H](CCCNC(=N)N)NC(=O)[C@H](CCCNC(=N)N)NC(=O)[C@H](CCCNC(=N)N)NC(=O)[C@H](C)NC(=O)[C@H](Cc1ccccc1)NC(=O)[C@H](CCC(=O)O)NC(=O)[C@H](CCC(=O)O)NC(=O)[C@H](CC(=O)O)NC(=O)[C@H](CC(=O)O)NC(=O)[C@H](Cc1c[nH]cn1)NC(=O)[C@H](Cc1c[nH]c2ccccc12)NC(=O)[C@H](C)NC(=O)[C@@H](N)CCSC)C(N)=O` (stereo partly shown) the tissue distribution was 7.5% and 5.83% and 6.61% (C57BL/6 mouse female, liver; dose not given, 3 h; baseline: total).
With `N#[11C]c1ccc(-c2csc(NN=C3CCCC3)n2)cc1` the radioactivity uptake was 12.3 ± 0.22 %ID/g (C57BL/6 mice, male, kidney; intravenous, 3 MBq, 15 min).
`CC(C)C[C@H](NC(=O)[C@H](Cc1ccc(O)cc1)NC(=O)[C@H](Cc1c[nH]cn1)NC(=O)[C@H](CC(=O)O)NC(=O)[C@@H](NC(=O)[C@H](C)NC(=O)[C@H](CC(C)C)NC(=O)CNC(=O)CNC(=O)[C@@H](NC(=O)[C@@H](NC(=O)[C@H](CCCCN)NC(=O)CNC(=O)[C@@H](NC(=O)[C@H](CCCCN)NC(=O)[C@H](CCCCN)NC(=O)[C@H](C)NC(=O)[C@H](CCCNC(=N)N)NC(=O)[C@H](CC(N)=O)NC(=O)[C@H](Cc1ccccc1)NC(=O)[C@H](Cc1c[nH]c2ccccc12)NC(=O)[C@H](CCCCN)NC(=O)[C@H](CCCCN)NC(=O)[C@H](Cc1c[nH]c2ccccc12)NC(=O)CN)C(C)C)[C@@H](C)O)C(C)C)C(C)C)C(N)=O` — result for “acute toxic concentration”: 5 µM (zebrafish embryos 4 hpf, E3 medium; 1 h).
The plasma concentration of `CC(C)(CCCC/C=C/CCCCCC(C)(C)C(=O)O)C(=O)O` is reported as 6510 ng/mL (ICR mice, both sexes; oral, dose not given, 7 h).

Some of these lines once more:
With `N#[11C]c1ccc(-c2csc(NN=C3CCCC3)n2)cc1` the radioactivity uptake was 12.3 ± 0.22 %ID/g (C57BL/6 mice, male, kidney; intravenous, 3 MBq, 15 min).
For `C/C(=N\OCCCN1CCCCC1)c1ccc(C(F)(F)F)cc1`, the PR interval was 72 ms and 60 ms (rhesus monkey; dose not given, after dosing).
